Assay results of several laboratories.
Numbered parts are unrelated; each lists some results of a single study. Changes are numbered by the printed parent chain.

Block 1
Target: CCNF, cyclin fold, Cln2 fusion (human)
Method: yeast growth competition, sequencing
Medium: yeast
Setting: strong parent motif
Reference: not given
Direction: higher = stronger binding
Starting sequence: DOT1L docking peptide (human); SEAKRRIVFTITT
| Change | normalised enrichment score |
| --- | --- |
| E2A | 5.61 |
| K4A | 3.4 |
| T13A | 4.11 |
| R6A | 1.62 |
| I11A | 4.32 |
| I7A | 0.139 |

Block 2
Target: Centromere-binding protein 1, full length, His-tagged (CBF1, Saccharomyces cerevisiae, UniProt P17106, residues 1-351)
UniProt P17106, sequence (whole entry, looked up): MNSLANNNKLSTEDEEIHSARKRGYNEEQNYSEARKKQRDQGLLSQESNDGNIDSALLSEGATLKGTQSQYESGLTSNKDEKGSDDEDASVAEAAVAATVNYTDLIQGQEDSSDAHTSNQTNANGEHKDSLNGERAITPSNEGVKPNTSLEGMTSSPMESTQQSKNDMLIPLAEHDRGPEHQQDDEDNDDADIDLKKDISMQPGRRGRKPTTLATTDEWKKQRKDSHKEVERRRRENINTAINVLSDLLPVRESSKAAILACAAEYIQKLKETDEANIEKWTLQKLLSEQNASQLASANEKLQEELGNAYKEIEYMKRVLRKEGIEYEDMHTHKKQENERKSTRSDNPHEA
Method: competition protein-binding microarray
Form: double-stranded DNA, one strand shown
Medium: in vitro
Concentration: 2 µM
Setting: whole 60-bp probe, lowest competitor level
Together with: Pho4 competitor, 0.05 µM
Direction: higher = stronger binding
| Oligonucleotide | fluorescence intensity |
| --- | --- |
| GTATAATCTCTGAGGTGCGTGGTGAGGGACTGCTTAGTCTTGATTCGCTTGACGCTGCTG | 65.7 a.u. |
| AAATTACTAAGTTGGAAGGTGGGTGACGCCGTATGAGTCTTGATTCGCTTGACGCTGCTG | 59.9 a.u. |
| GGAAACAGCTACCCCGGCGTGCCGAGTGGCTCTCTGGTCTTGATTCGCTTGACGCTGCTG | 46.1 a.u. |
| TGAATAGCAGCATTCAATGTGACGAACAACCCGGAGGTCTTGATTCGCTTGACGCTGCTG | 58.5 a.u. |
| TGCGCAACAACTTGAGATGTGGGTGTATGTCTAGAAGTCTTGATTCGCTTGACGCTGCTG | 69.3 a.u. |
| GTAAGTGAGATAATCCACGTGCTTTAAAGAAGTTGTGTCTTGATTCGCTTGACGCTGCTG | 1650 a.u. |
| TCGGAGAAAGCATCTCACGGGGAACAATTGGTTAGAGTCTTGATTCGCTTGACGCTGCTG | 89 a.u. |
| ATCAAGGCTGTTCACCACGCATCTGTTCAAATCAACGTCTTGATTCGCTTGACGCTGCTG | 78.6 a.u. |
| GGGATATTCCACCATCACGTCTGCGCCAAGCCACAAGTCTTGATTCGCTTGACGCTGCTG | 77.4 a.u. |
| ATAACGTTGCTTTTGCACGTGTAGTTCGCTGCTTAGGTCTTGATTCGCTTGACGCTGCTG | 774 a.u. |
| GTCTTGTCTCATTTTCACGTGCAATTCCCCACTTCAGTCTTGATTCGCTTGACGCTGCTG | 878 a.u. |
| CATACCCAACCTTGTCACTACACTTAAGATATTTGTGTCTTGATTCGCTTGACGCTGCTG | 73.6 a.u. |
| AACCGAATGGCATCGCACGCTATGCAACTAATGACCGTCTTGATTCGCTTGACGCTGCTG | 87.2 a.u. |
| ACTGGCTCTATTTTGCACGCAACTTGTGCAGCTTTAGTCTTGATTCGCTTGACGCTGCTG | 85.5 a.u. |
| CTTTCCCGATCTTGGCCTGTGGGTGTAGCACATTTGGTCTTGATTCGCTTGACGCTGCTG | 60 a.u. |
| GAAAAATTAATCCGACATGTGGAATATTTCCTTCCGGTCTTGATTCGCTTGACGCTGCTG | 140 a.u. |
| TGTCTGGAAGGGCCACACCCGGAATTGCAGGTCTACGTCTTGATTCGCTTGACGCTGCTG | 44.6 a.u. |
| CATACCCAACCTTGACCGGTGGGTGAAGATATTTGTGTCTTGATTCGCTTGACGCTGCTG | 62.3 a.u. |

Block 3
Target: Histone acetyltransferase KAT6A, winged helix 2, GST fusion (KAT6A, Homo sapiens, UniProt Q92794, residues 85-181)
Method: protein binding microarray
Form: double-stranded DNA, one strand shown
Medium: in vitro
Concentration: not given
Setting: 8-mer, flanks averaged, mean of 2 arrays, mostly near background
Reference: not given
Direction: higher = stronger binding
Target sequence (chain): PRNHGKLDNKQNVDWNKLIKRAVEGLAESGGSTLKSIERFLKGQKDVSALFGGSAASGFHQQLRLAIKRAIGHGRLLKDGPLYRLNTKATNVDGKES
| Oligonucleotide | E-score |
| --- | --- |
| CTGCGTAA | 0.03 |
| ACTAAAGA | -0.0389 |
| GTAAAGAC | -0.0402 |
| CTCTATTA | -0.0808 |
| GCTTTACC | -0.184 |
| GTATCAAA | 0.0897 |
| CGTTAGGC | -0.184 |
| AACTGCAC | 0.0997 |
| CTTGGTTC | 0.119 |
| ACTAATGG | -0.14 |
| ACTATCCC | -0.289 |
| TAGAATGA | -0.0888 |
| ACTAGTTG | -0.252 |
| GATCATAA | 0.144 |
| AATTCCCA | -0.0664 |
| AATACCAT | -0.115 |
| GAACTGGA | 0.0765 |
| CTATGTTC | -0.0599 |
| ATGAAGGG | -0.0736 |
| ATGGAGGA | -0.0141 |
| AGGTCGAG | 0.0223 |
| AAACCTTT | -0.0722 |
| ACAAGGAA | 0.181 |

Block 4
Target: ABI1, truncated, D143A, DHFR fusion (Arabidopsis thaliana)
Method: DHFR PCA, deep sequencing
Medium: yeast
Setting: methotrexate growth selection, single substitutions
Together with: (+)-ABA 0.0091 µM
Reference: wild-type fitted maximum
Direction: higher = stronger binding
Starting sequence: PYL1, truncated, DHFR fusion (Arabidopsis thaliana); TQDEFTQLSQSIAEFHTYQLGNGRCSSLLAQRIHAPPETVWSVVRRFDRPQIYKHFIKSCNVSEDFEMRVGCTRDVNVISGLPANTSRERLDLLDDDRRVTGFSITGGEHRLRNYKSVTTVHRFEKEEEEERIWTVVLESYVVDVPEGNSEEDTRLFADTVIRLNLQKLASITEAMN; partner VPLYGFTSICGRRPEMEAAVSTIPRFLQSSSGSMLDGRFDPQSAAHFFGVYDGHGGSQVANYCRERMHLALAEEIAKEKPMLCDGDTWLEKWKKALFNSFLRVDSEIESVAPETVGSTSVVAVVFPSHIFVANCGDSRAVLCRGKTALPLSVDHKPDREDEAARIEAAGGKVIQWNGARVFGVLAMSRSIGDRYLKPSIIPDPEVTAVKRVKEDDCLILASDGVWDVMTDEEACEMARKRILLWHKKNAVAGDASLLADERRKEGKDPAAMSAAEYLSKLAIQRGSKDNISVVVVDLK
| Change | relative binding score |
| --- | --- |
| N149E | 30.6% |
| N114Q | 2.67% |
| T39E | 1.38% |
| K54W | 8.58% |
| Y53D | -2.99% |
| R74V | -1.63% |
| E67M | 9.27% |
| L138A | 0.771% |
| N77Y | 41.5% |
| N61R | 50.6% |
| T120M | -4.3% |
| V161R | -0.148% |
| T154Y | -3.07% |
| K54P | -2.66% |
| R49A | 22.3% |
| V145L | -3.73% |
| V78P | 0.771% |

Block 5
Target: Hepatocyte nuclear factor 3-beta, forkhead domain (FOXA2, Homo sapiens, UniProt Q9Y261, residues 142-269)
Method: protein-binding microarray
Form: double-stranded DNA, one strand shown
Medium: in vitro
Concentration: not given
Setting: k-mer, scored over probes, only values ≥0.25
Direction: higher = stronger binding
Target sequence (chain): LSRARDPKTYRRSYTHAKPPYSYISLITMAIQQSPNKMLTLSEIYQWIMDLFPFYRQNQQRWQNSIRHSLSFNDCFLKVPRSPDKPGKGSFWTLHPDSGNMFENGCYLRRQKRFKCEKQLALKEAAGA
| Oligonucleotide | E-score |
| --- | --- |
| CATAAGAC | 0.302 |
| ATTTAAAT | 0.313 |
| CAACATCA | 0.328 |
| TGATTAAA | 0.289 |
| ACTATTAA | 0.297 |
| ACTGTACA | 0.258 |
| ATACACTC | 0.26 |
| ATCTACTA | 0.319 |
| GATATCCA | 0.26 |
| TACATCAA | 0.251 |
| AGAACAAA | 0.34 |
| CATACAAA | 0.277 |
| ATAACTAT | 0.305 |

Further values, each from its own experiment
| Molecule | target | test | system | setting | scale | measurement | result |
| --- | --- | --- | --- | --- | --- | --- | --- |
| PhoQ, residues 284 288 289 292 302 303 SLGVVW | PhoP, residues 12 14 15 18 19 TPWLV (Escherichia coli, UniProt P23836) | Sort-seq, item: YFP reporter | E. coli | PhoQ-PhoP variant library, together with: 10 µM Mg2+ | reference: high Mg2+ state, higher = stronger signaling | fold induction | 19.7 |

For quick reference, copied from above (block 4):
| Change | relative binding score |
| --- | --- |
| L138A | 0.771% |
| N77Y | 41.5% |
| N61R | 50.6% |
| T120M | -4.3% |
| V161R | -0.148% |
